Measurements pooled from the literature.
± marks the error that the study gave.
AKR1C3: Aldo-keto reductase family 1 member C3 (AKR1C3, Homo sapiens, UniProt P42330)
Sequence of UniProt P42330 (whole entry, looked up): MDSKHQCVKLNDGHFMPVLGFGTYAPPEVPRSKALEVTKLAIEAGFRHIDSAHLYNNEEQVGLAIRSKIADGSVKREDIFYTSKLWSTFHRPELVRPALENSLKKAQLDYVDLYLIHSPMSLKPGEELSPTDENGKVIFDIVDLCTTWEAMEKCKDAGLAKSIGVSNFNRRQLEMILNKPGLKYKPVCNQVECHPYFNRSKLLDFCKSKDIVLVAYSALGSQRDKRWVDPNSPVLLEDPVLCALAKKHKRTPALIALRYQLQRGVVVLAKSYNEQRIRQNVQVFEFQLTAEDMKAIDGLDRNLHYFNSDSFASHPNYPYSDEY
CDK2 with cyclin A2: Cyclin-dependent kinase 2, with cyclin A2 (CDK2, Homo sapiens, UniProt P24941)
DNMT3A catalytic domain: DNA (cytosine-5)-methyltransferase 3A, catalytic domain (DNMT3A, Homo sapiens, UniProt Q9Y6K1)
PLK3: Serine/threonine-protein kinase PLK3 (PLK3, Homo sapiens, UniProt Q9H4B4)
Sequence of UniProt Q9H4B4 (whole entry, looked up): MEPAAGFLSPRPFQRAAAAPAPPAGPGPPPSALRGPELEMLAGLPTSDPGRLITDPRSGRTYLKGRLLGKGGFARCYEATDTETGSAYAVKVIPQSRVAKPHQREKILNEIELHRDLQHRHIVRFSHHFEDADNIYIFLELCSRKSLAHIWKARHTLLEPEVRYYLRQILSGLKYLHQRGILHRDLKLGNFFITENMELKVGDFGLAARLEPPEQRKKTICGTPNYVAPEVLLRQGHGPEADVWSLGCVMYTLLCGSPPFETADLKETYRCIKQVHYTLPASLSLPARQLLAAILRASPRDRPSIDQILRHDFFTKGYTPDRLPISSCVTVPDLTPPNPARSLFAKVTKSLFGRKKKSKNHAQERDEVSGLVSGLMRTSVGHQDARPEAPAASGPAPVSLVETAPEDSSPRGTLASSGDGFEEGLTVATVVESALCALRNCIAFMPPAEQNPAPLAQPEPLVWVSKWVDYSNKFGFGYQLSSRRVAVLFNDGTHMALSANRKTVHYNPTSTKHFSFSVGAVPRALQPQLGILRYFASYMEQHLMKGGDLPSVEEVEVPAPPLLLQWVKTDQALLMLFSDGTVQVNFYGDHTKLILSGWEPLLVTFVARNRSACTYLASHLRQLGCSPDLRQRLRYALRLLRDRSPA
MAL12: Alpha-glucosidase MAL12 (MAL12, Saccharomyces cerevisiae S288c, UniProt P53341)
Sequence of UniProt P53341 (whole entry, looked up): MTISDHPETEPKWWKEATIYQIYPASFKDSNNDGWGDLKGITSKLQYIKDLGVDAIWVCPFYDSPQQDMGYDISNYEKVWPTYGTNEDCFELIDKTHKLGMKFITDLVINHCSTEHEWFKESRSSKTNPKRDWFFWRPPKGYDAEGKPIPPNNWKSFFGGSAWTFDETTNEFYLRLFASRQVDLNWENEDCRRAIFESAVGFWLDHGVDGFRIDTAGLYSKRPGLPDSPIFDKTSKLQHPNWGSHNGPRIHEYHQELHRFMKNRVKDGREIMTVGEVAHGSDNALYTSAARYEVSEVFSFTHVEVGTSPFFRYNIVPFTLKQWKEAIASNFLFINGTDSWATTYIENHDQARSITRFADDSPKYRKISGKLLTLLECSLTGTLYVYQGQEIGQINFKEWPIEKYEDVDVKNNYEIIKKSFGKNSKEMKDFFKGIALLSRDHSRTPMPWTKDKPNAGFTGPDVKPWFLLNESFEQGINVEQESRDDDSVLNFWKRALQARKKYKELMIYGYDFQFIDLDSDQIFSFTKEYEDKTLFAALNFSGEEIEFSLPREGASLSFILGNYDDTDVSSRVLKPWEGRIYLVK
SIRT6: NAD-dependent protein deacylase sirtuin-6 (SIRT6, Homo sapiens, UniProt Q8N6T7)
Sequence of UniProt Q8N6T7 (whole entry, looked up): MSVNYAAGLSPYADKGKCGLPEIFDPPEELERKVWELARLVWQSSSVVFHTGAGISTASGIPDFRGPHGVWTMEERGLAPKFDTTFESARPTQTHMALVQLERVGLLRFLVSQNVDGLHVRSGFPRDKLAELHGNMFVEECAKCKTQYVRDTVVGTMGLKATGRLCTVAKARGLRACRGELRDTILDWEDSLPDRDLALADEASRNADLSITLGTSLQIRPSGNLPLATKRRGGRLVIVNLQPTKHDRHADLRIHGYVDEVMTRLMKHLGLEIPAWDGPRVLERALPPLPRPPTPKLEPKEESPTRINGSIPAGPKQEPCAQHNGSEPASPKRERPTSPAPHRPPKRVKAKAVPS
Genome polyprotein protease: Genome polyprotein, protease (Dengue virus type 2, UniProt P14340)
CTSL: Procathepsin L (CTSL, Homo sapiens, UniProt P07711)
Sequence of UniProt P07711 (whole entry, looked up): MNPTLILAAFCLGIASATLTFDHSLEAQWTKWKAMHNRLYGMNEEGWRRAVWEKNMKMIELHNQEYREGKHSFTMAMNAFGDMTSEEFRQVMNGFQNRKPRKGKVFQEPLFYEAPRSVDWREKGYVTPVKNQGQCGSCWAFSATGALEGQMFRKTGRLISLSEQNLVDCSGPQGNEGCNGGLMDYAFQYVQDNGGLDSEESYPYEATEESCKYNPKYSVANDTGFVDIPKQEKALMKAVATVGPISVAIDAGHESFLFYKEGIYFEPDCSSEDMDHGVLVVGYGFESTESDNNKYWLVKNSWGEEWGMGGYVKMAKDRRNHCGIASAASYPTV
Ectonucleoside triphosphate diphosphohydrolase 2: Ectonucleoside triphosphate diphosphohydrolase 2 (Homo sapiens, UniProt Q9Y5L3)
Sequence of UniProt Q9Y5L3 (whole entry, looked up): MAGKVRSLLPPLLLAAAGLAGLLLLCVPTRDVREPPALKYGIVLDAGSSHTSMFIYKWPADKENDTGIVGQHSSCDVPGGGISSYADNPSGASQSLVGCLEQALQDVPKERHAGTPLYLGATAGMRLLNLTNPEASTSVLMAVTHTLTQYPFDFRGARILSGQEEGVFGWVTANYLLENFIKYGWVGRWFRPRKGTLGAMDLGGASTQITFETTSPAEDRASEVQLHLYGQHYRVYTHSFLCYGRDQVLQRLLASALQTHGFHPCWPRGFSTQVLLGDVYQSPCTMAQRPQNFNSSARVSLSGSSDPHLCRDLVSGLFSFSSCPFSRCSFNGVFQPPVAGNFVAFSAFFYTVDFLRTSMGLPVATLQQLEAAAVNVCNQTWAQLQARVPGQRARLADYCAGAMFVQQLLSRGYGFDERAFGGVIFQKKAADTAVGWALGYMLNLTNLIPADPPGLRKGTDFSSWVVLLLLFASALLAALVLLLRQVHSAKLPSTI
Sialyltransferase ST3Gal-I: Sialyltransferase ST3Gal-I (Rattus norvegicus, UniProt Q6H8N0)
Sequence of UniProt Q969S8 (whole entry, looked up): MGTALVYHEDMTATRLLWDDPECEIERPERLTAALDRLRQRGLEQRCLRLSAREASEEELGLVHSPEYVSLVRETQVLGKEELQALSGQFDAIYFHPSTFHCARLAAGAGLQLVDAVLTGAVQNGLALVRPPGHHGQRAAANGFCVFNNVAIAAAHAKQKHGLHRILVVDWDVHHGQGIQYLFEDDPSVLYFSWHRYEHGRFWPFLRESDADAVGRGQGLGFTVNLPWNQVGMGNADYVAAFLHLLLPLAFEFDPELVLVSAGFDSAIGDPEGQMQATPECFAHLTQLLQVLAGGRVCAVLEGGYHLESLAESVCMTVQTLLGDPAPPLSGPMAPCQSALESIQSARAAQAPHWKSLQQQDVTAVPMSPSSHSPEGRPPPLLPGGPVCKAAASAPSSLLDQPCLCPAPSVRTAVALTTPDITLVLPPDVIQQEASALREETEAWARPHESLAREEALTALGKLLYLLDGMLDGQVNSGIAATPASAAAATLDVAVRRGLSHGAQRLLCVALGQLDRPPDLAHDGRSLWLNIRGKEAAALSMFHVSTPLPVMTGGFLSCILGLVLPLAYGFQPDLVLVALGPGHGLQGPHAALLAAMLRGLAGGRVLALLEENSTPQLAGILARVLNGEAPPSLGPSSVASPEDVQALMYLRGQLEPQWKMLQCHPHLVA
Sequence of UniProt P13866 (whole entry, looked up): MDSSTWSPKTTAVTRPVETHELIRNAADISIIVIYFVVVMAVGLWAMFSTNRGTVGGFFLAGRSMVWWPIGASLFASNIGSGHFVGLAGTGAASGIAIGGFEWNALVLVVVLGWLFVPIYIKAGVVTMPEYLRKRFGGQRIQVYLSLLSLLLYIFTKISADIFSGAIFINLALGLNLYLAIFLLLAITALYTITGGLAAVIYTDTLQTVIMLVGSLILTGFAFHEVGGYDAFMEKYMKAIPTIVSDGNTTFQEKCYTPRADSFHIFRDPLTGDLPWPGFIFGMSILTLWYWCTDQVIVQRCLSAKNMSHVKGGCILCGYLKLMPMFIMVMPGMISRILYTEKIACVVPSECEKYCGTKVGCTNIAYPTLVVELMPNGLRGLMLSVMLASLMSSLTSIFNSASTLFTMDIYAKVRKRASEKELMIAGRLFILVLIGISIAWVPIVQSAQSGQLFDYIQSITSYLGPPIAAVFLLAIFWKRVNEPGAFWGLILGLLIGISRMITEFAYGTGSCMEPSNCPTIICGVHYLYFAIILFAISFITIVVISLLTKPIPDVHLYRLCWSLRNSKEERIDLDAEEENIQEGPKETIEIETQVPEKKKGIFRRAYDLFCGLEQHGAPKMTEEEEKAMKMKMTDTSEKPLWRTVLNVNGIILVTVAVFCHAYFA

`COc1cc2c(cc1Br)[C@H]1CC[C@@]3(C)C(=O)CC[C@H]3[C@@H]1CC2` has an inhibition of 18.3% (AKR1C3; enzyme activity, inhibitor, absorbance; 100 µM, pH 9).
For `CC(C)Cn1cc(-c2ccnc(Nc3ccc(C(=O)Nc4ccccc4N)cc3)n2)nn1`, the inhibition was 5.2% (CDK2 with cyclin A2; enzyme activity, inhibitor, TR-FRET; 50 nM).
`Cc1cc(Nc2ccc(NC(=O)c3ccc(NC(=O)c4ccncc4)cc3)cc2)nc(N)n1` gave an inhibition of 0% (DNMT3A catalytic domain; enzyme activity, inhibitor, restriction-based fluorescence; 20 µM).
For `COc1cc(C(=O)NC2CCC(N3CCN(CC4CCC5(CCCC5)C4)CC3)CC2)c(F)cc1Nc1ncc2c(n1)N(C1CCCC1(F)F)CC(F)(F)C(=O)N2C` (centres unmarked), the inhibition was 0.24% (PLK3; cell-free assay, TR-FRET; 10 µM).
For `CC(C)C[C@H](NC(=O)[C@@H]1CCCN1C(=O)[C@@H]1CCCN1C(=O)[C@H](CC(N)=O)NC(=O)[C@@H](N)Cc1ccc(Cl)c(Cl)c1)C(=O)N[C@@H](Cc1c[nH]cn1)C(=O)N[C@@H](CO)C(=O)N[C@H](C(=O)N[C@@H](C)C(=O)O)[C@@H](C)OP(=O)(O)O`, the inhibition was 6.92% (PLK3; enzyme activity, inhibitor; 10 µM).
`S=C(Nc1ccc(Cl)cc1)Nc1cccc2[nH]ccc12` gave an inhibition of 79% (Microtubule-associated protein tau, 2N3R isoform (MAPT, Homo sapiens, UniProt P10636); tau fibril formation, ThT fluorescence; 100 µM, tau at 10 µM).
With `COc1ccc2c(c1Br)CC[C@@H]1[C@@H]2CC[C@@]2(C)C(=O)CC[C@@H]12` the inhibition was 39.7% (AKR1C3; enzyme activity, inhibitor, absorbance; 100 µM, pH 9).
`O=C(CCCCCCN1CCN(c2ccc(Nc3ncc(F)c(-c4cn(C5CCCC5)nn4)n3)cc2)CC1)NO` — result for inhibition: “no effect” (HDAC5 (Homo sapiens, UniProt Q9UQL6); enzyme activity, inhibitor; 500 nM).
For `COc1cc(O)c2c(=O)c(OC)c(-c3ccc(O)c(O)c3)oc2c1`, the inhibition was 5.9% (MAL12; enzyme activity, inhibitor, absorbance; 10 µM).
`CC(C)CCC[C@@H](C)[C@H]1CCC([C@@H]2CC[C@H]3C[C@@H](O)CC[C@]3(C)[C@H]2O)[C@]1(C)CC(=O)O` (some centres unmarked) gave an inhibition of 100% (Bile acid receptor (NR1H4, Homo sapiens, UniProt Q96RI1); reporter gene, antagonist, luciferase; HEK-293T; 10 µM).
The inhibition of `C[C@@]12CC[C@@H]3c4cc(Br)c(O)c(Br)c4CC[C@H]3[C@@H]1CCC2=O` is reported as 27.9% (AKR1C3; enzyme activity, inhibitor, absorbance; 10 µM, pH 9).
With `NC(=O)c1cn(CC(=O)NCCNC(=O)CCc2nc(-c3cccnc3)no2)c(=O)[nH]c1=O` the inhibition was 0% (SIRT6; demyristoylation; 10 µM).
For `C[C@]12CC[C@@H]3c4cc(I)c(O)c(I)c4CC[C@H]3[C@@H]1CCC2=O`, the inhibition was 13.6% (AKR1C3; enzyme activity, inhibitor, absorbance; 10 µM, pH 9).
The inhibition of `CCOC(=O)c1cccc(NC(=O)[C@H](CNC(=O)Cn2cc(C(N)=O)c(=O)[nH]c2=O)NC(=O)CCc2nc(-c3cccnc3)no2)c1` is reported as 29% (SIRT6; demyristoylation; 10 µM).
The inhibition of `Cc1cccc(/C=C/C(=O)c2cnn(-c3ccccc3)c2C)c1` is reported as 9.43% (MAL12; enzyme activity, inhibitor; 10 µM).
The inhibition of `C[C@@]12CC[C@@H]3c4ccc(O)cc4CC[C@H]3[C@@H]1CCC2=O` is reported as 29.8% (AKR1C3; enzyme activity, inhibitor, absorbance; 100 µM, pH 9).
`Oc1c(C(Nc2nccs2)c2ccccc2OCc2ccccc2)ccc2cccnc12` (centres unmarked) has an inhibition of 83.1% (Genome polyprotein protease; enzyme activity, inhibitor, fluorescence; 25 µM).
`Cc1ccc(S(=O)(=O)c2c(-c3ccccc3)c3c(C)c4ccc(C)cc4n3c3ccccc23)cc1` has an inhibition of greater than 50% (EGFR (Homo sapiens, UniProt P00533); enzyme activity, inhibitor, ADP detection; 1 µM).
`Cc1cc(Nc2ccc(NC(=O)c3ccc(NC(=O)c4cccnc4O)cc3)cc2)nc(N)n1` gave an inhibition of 0% (DNMT3A catalytic domain; enzyme activity, inhibitor; 10 µM).
The inhibition of `Cc1ccc(O)c(C(=O)Nc2ccc(CN)cc2)c1` is reported as less than 20% (CTSL; enzyme activity, inhibitor; 10 µM).
The inhibition of `O=C(c1cccc(S(=O)(=O)NC2CC2)c1)N1CCOCC1` is reported as 44% (Ectonucleoside triphosphate diphosphohydrolase 2; enzyme activity, inhibitor, absorbance; 100 µM).
`CCCCCCCCCCCCCC(=S)NCCCC[C@H](NC(=O)CNC(=O)CN)C(=O)NCC(=O)O` gave an inhibition of 18% (SIRT6; enzyme activity, inhibitor; 50 µM).
`C[C@H](CCC(=O)N[C@H](CC(c1c[nH]c2ccc([N+](=O)[O-])cc12)c1c[nH]c2ccc([N+](=O)[O-])cc12)C(=O)O)[C@H]1CC[C@H]2[C@@H]3CC[C@@H]4C[C@H](O)CC[C@]4(C)[C@H]3CC[C@]12C` gave an inhibition of 3% (Sialyltransferase ST3Gal-I; enzyme activity, inhibitor, UPLC; 500 µM).
With `Oc1c(C(Nc2nc3ccccc3s2)c2ccccc2OCc2ccccc2)ccc2cccnc12` (centres unmarked) the inhibition was 85.5% (Genome polyprotein protease; enzyme activity, inhibitor, fluorescence; 25 µM).
With `C[C@H](CCC(=O)N[C@H](CC(c1c[nH]c2ccc(Cl)cc12)c1c[nH]c2ccc(Cl)cc12)C(=O)O)[C@H]1CC[C@H]2[C@@H]3CC[C@@H]4C[C@H](O)CC[C@]4(C)[C@H]3CC[C@]12C` the inhibition was 95% (ST6GAL1 (Homo sapiens, UniProt P15907); enzyme activity, inhibitor, UPLC; 25 µM).
`O=[N+]([O-])c1cccc(S(=O)(=O)NC[C@@H](O)[C@@H]2CCc3cc(F)ccc3O2)c1` has an inhibition of 39.9% (PTGS2 (Ovis aries, UniProt P79208); enzyme activity, inhibitor, absorbance; 100 µM).
With `COc1ccc2c(c1I)CC[C@@H]1[C@@H]2CC[C@@]2(C)C(=O)CC[C@@H]12` the inhibition was 19.8% (AKR1C3; enzyme activity, inhibitor, absorbance; 100 µM, pH 9).
For `CN(C)c1ccc(NC(=S)N(C)c2ccccc2)cc1`, the inhibition was 34% (MAPT (Homo sapiens, UniProt P10636); fibril formation, ThT fluorescence; 100 µM, together with: tau 10 µM).
The inhibition of `CC(C)C[C@H](NC(=O)[C@H](CCC(N)=O)NC(=O)[C@H](CCCCN)NC(=O)[C@H](CCCNC(=N)N)NC(=O)[C@@H]1CCCN1C(=O)[C@H](C)NC(=O)[C@@H](N)CCCCN)C(=O)N[C@@H](C)C(=O)N[C@H](C(=O)N[C@@H](CCCCN)C(=O)N[C@@H](C)C(=O)N[C@@H](C)C(=O)N[C@@H](CCCNC(=N)N)C(=O)N[C@@H](CCCCN)C(=O)N[C@@H](CO)C(=O)N[C@@H](C)C(=O)N1CCC[C@H]1C(=O)N[C@@H](C)C(=O)O)[C@@H](C)O` is reported as 85.4 ± 0.3% (CTSL; enzyme activity, inhibitor; 25 µM, pH 6.0, 25 °C, 3% DMSO, together with: Z-LR-Mca at 0.16 x Km).
Under inhibition, `N#Cc1cnc2sc(C(=O)O)cc2c1N1CCc2[nH]nc(C(=O)N[C@@H](CC(=O)NCCOCCN3CCOCC3)c3cccc(Br)c3)c2C1` is recorded as “no inhibition” (Interleukin-1 receptor-like 2 (IL1RL2, Homo sapiens, UniProt Q9HB29); reporter gene; HEK-Blue IL-36R; up to 100 µM, together with: IL-36β).
`OCc1ccccc1S[C@@H]1O[C@H](CO)[C@H](O)[C@H](O)[C@H]1O` gave an inhibition of 57.9% (SLC5A1 (Homo sapiens, UniProt P13866); transporter uptake, inhibitor, radiometric; CHO; 10 µM).
`NC(=O)c1ccc(C(=O)NOCc2ccc(Sc3cccc(Cl)c3)c(C(F)(F)F)c2)cc1` has an inhibition of 5.7% (HDAC10 (Homo sapiens, UniProt Q969S8); cell-free assay, inhibitor; 100 µM).
With `Oc1c(C(Nc2nccs2)c2cccc(OCc3ccccc3)c2)ccc2cccnc12` (centres unmarked) the inhibition was 78.5% (Genome polyprotein protease; enzyme activity, inhibitor, fluorescence; 10 µM).
For `COc1cc2c(cc1Cl)[C@H]1CC[C@@]3(C)C(=O)CC[C@H]3[C@@H]1CC2`, the inhibition was no less than 80% (AKR1C3; enzyme activity, inhibitor, absorbance; 100 µM, pH 9).
`Nc1ccccc1NC(=O)c1ccc(Nc2nccc(-c3cn(C4CCCC4)nn3)n2)cc1` has an inhibition of 1.75% (CDK2 with cyclin A2; enzyme activity, inhibitor, TR-FRET; 50 nM).
Under inhibition, `COc1ccc(-c2cc(C(F)(F)F)nc(S(=O)(=O)NCC(=O)Nc3ccc(C)cc3)c2)cc1` is recorded as “inactive” (WRN (Homo sapiens, UniProt Q14191); DNA unwinding, TAMRA dequenching; concentration not given).
`O=C(O)C(=O)N[C@H](Cc1ccccc1)C(=O)O` — result for inhibition: “inactive” (Egl nine homolog 1 (EGLN1, Homo sapiens, UniProt Q9GZT9); CODD peptide hydroxylation, MALDI-TOF MS; concentration not given).
`C[C@H](CCC(=O)N[C@H](CC(c1c[nH]c2ccccc12)c1c[nH]c2ccccc12)C(=O)O)[C@H]1CC[C@H]2[C@@H]3CC[C@@H]4C[C@H](O)CC[C@]4(C)[C@H]3CC[C@]12C` has an inhibition of no more than 3% (Sialyltransferase ST3Gal-I; enzyme activity, inhibitor, UPLC; 500 µM).
For `C[C@@]12CC[C@@H]3c4ccc(O)c(I)c4CC[C@H]3[C@@H]1CCC2=O`, the inhibition was 35.1% (AKR1C3; enzyme activity, inhibitor, absorbance; 10 µM, pH 9).
`CC(C)(C)CCN1C[C@@H]2[C@@H](CNC(=O)c3cc(Cl)cc(Cl)c3)[C@@H]2C1.Cl` has an inhibition of roughly 50% (Voltage-dependent L-type calcium channel subunit alpha-1F (Homo sapiens, UniProt O60840, M1426A); calcium current, whole-cell patch clamp; HEK-293T transfected; 10 µM, M1426A mutant).
The inhibition of `C[C@H](CCC(=O)N[C@H](CC(c1c[nH]c2ccc(F)cc12)c1c[nH]c2ccc(F)cc12)C(=O)O)[C@H]1CC[C@H]2[C@@H]3CC[C@@H]4C[C@H](O)CC[C@]4(C)[C@H]3CC[C@]12C` is reported as 1% (Sialyltransferase ST3Gal-I; enzyme activity, inhibitor, UPLC; 500 µM).
With `O=C(O)c1cc(S(=O)(=O)Nc2ccc(Br)cc2)ccc1Cl` the inhibition was 22% (Ectonucleoside triphosphate diphosphohydrolase 2; enzyme activity, inhibitor, absorbance; 100 µM).
`O=C(Nc1cccc(C(=O)Nc2ccc3[nH]ncc3c2)c1)Nc1cc(C(F)(F)F)ccc1F` gave an inhibition of 11.6% (NTRK2 (Homo sapiens, UniProt Q16620); enzyme activity, inhibitor, FRET; 1 µM).
For `NOCC(=O)O`, the inhibition was 49% (CBS (Homo sapiens, UniProt P35520); enzyme activity, inhibitor; 10 µM).

Some of these lines once more:
`S=C(Nc1ccc(Cl)cc1)Nc1cccc2[nH]ccc12` gave an inhibition of 79% (Microtubule-associated protein tau, 2N3R isoform (MAPT, Homo sapiens, UniProt P10636); tau fibril formation, ThT fluorescence; 100 µM, tau at 10 µM).
With `COc1ccc2c(c1Br)CC[C@@H]1[C@@H]2CC[C@@]2(C)C(=O)CC[C@@H]12` the inhibition was 39.7% (AKR1C3; enzyme activity, inhibitor, absorbance; 100 µM, pH 9).
`O=C(CCCCCCN1CCN(c2ccc(Nc3ncc(F)c(-c4cn(C5CCCC5)nn4)n3)cc2)CC1)NO` — result for inhibition: “no effect” (HDAC5 (Homo sapiens, UniProt Q9UQL6); enzyme activity, inhibitor; 500 nM).
